# Experimental data gathered from unrelated publications.
# Lines come from different studies, so protocols differ.
# Organism: Candida albicans
Compound,assay,system,conditions,how to read,MIC
O=C(NCCNCCO)c1cn(Cc2ccccc2)c2cc(OCc3ccc(C(F)(F)F)cc3)c(Cl)cc2c1=O,,ATCC 90028,,≥80% growth inhibition,> 32 µg/mL
Cc1ccc(C2OC(c3ccc(C)cc3)C(C)C(=NOCc3cn(-c4ccccc4)nn3)C2C)cc1 (stereo not drawn),microbial growth,,,,25 µg/mL
CC[C@H](C)[C@H](NC(=O)[C@H](CC(C)C)NC(=O)[C@H](CCC(N)=O)NC(=O)[C@H](CO)NC(=O)[C@H](CCCNC(=N)N)NC(=O)[C@@H](N)CO)C(=O)N[C@H](C(=O)N[C@@H](Cc1c[nH]cn1)C(=O)N[C@@H](CCC(N)=O)C(=O)N[C@@H](CCCNC(=N)N)C(=O)N[C@@H](CC(C)C)C(=O)N[C@@H](Cc1ccccc1)C(N)=O)C(C)C,broth microdilution,RPMI MOPS-buffered,,,> 400 µg/mL
CC[C@H](C)[C@H](NC(=O)[C@H](C)NC(=O)[C@@H]1CCCN1C(=O)[C@H](CC(C)C)NC(=O)[C@H](Cc1ccccc1)NC(=O)[C@H](CCCCN)NC(=O)[C@H](CCSC)NC(=O)[C@H](C)NC(=O)[C@H](CCSC)NC(=O)[C@H](CCCCN)NC(=O)[C@H](C)NC(=O)[C@@H](NC(=O)[C@@H](NC(=O)CNC(=O)[C@H](Cc1ccccc1)NC(=O)[C@@H](N)Cc1ccccc1)C(C)C)[C@@H](C)CC)C(=O)N[C@@H](Cc1ccccc1)C(=O)N[C@@H](CCCCN)C(=O)N[C@@H](CCC(N)=O)C(=O)N[C@H](C(=O)N[C@@H](CCC(N)=O)C(=O)N[C@@H](CCCCN)C(=O)N[C@@H](CCCCN)C(=O)N[C@@H](CCCNC(=N)N)C(=O)N[C@@H](CCCCN)C(N)=O)[C@@H](C)CC,ATP luminescence,FH2173,48 h,,12.5 µM
CC(C)[C@@H](CC(=O)N[C@@H](CCCCN)CC(=O)N[C@H](CC(=O)N[C@H](CC(=O)N[C@@H](CCCCN)CC(=O)N[C@H](CC(=O)N[C@H](CC(=O)N[C@@H](CCCCN)CC(N)=O)C(C)C)C(C)C)C(C)C)C(C)C)NC(=O)C[C@@H](NC(=O)C[C@@H](N)Cc1ccc(O)cc1)C(C)C,broth microdilution,SC5314,"48 h, pH 7.2, 35 °C",,32 µg/mL
CCCCCCCCCCCCCCC(=O)O.O=C1CCCC2C3CCCN4CCCC(CN12)C34 (stereo not drawn),broth dilution,ATCC 10231,,,inactive
O=[N+]([O-])[O-].S=c1[nH]cnc2[nH]cnc12.[Ag+].c1ccc(P(c2ccccc2)c2ccccc2)cc1.c1ccc(P(c2ccccc2)c2ccccc2)cc1,agar dilution,"MTCC 227, Mueller Hinton agar","24 h, 25 °C",,50 µg/mL
CC(=O)OCc1cc(-c2nc3ccccc3n(-c3ccc([N+](=O)[O-])cc3[N+](=O)[O-])c2=O)nn1-c1ccccc1,microbial growth,,clinical isolate,,> 500 µg/mL
CC(C)C[C@H](NC(=O)[C@H](C)NC(=O)CNC(=O)[C@@H](NC(=O)[C@@H](NC(=O)[C@H](CCCCN)NC(=O)[C@H](CCCCN)NC(=O)[C@H](CC(C)C)NC(=O)[C@H](CC(C)C)NC(=O)[C@H](CCCCN)NC(=O)[C@H](CC(C)C)NC(=O)[C@H](CC(C)C)NC(=O)[C@@H](N)CCCCN)C(C)C)C(C)C)C(=O)NCC(N)=O,broth microdilution OD530,"ATCC 90028, yeast nitrogen base","24 h, 35 °C",,22 µM
CC[C@H](C)[C@@H]1NC(=O)[C@H](CC(C)C)NC(=O)[C@@H](NC(=O)[C@H](CO)NC(=O)[C@H](CCCNC(=N)N)NC(=O)[C@@H](N)CO)CSSC[C@@H](C(=O)N[C@@H](CCC(N)=O)C(=O)N[C@@H](CCCNC(=N)N)C(=O)N[C@@H](CC(C)C)C(=O)N[C@@H](Cc2ccccc2)C(N)=O)NC(=O)[C@H](C(C)C)NC1=O,broth microdilution,ATCC 24433,,,5 µg/mL
CC[C@H](C)[C@H](NC(=O)CNC(=O)[C@@H](NC(=O)[C@@H](N)Cc1ccccc1)[C@@H](C)CC)C(=O)N[C@@H](CCSC)C(=O)N[C@@H](C)C(=O)N[C@H](C(=O)N[C@@H](CC(C)C)C(=O)N[C@@H](C)C(=O)N[C@@H](CO)C(=O)N[C@@H](CC(C)C)C(=O)N[C@H](C(=O)N[C@H](C(=O)N1CCC[C@H]1C(=O)N[C@@H](CCCCN)C(=O)N[C@@H](CC(C)C)C(=O)N[C@H](C(=O)N[C@@H](CCC(=O)O)C(=O)N[C@@H](CCCCN)C(=O)N[C@H](C(=O)N[C@@H](CCCCN)C(=O)N[C@@H](CCC(N)=O)C(=O)N[C@@H](C)C(=O)N[C@@H](CCCNC(=N)N)C(N)=O)[C@@H](C)CC)[C@@H](C)CC)[C@@H](C)CC)C(C)C)[C@@H](C)O,ATP luminescence,FH2173,48 h,,50 µM
CC[C@@H](CC(=O)N[C@@H](CCCNC(=N)N)CC(=O)N[C@H]1CCCC[C@@H]1C(=O)N[C@@H](CC)CC(=O)N[C@@H](CCCNC(=N)N)CC(=O)N[C@H]1CCCC[C@@H]1C(=O)N[C@@H](CC)CC(=O)N[C@@H](CCCNC(=N)N)CC(N)=O)NC(=O)[C@H]1CCCC[C@@H]1NC(=O)C[C@@H](N)Cc1ccc(O)cc1,broth microdilution,SC5314,"48 h, pH 7.2, 35 °C",,16 µg/mL
N#CC1COC(=O)N1/N=C/c1ccc([N+](=O)[O-])o1 (stereo not drawn),"microbial growth, broth dilution",ATCC14053,18 h,,> 50 µg/mL
CC[C@H](C)[C@H](NC(=O)[C@H](CC(C)C)NC(=O)[C@H](CC(=O)O)NC(=O)[C@H](CO)NC(=O)[C@H](CCCNC(=N)N)NC(=O)[C@@H](N)CO)C(=O)N[C@H](C(=O)N[C@@H](Cc1c[nH]cn1)C(=O)N[C@@H](CCC(N)=O)C(=O)N[C@@H](CCCNC(=N)N)C(=O)N[C@@H](CC(C)C)C(=O)N[C@@H](Cc1ccccc1)C(N)=O)C(C)C,broth microdilution,RPMI MOPS-buffered,,,> 400 µg/mL
CC[C@H](C)[C@H](NC(=O)CNC(=O)[C@H](CCCCN)NC(=O)[C@H](C)NC(=O)[C@H](CCC(=O)O)NC(=O)[C@H](Cc1ccccc1)NC(=O)[C@H](CO)NC(=O)[C@H](CC(C)C)NC(=O)[C@@H](NC(=O)[C@H](CC(=O)O)NC(=O)[C@H](C)NC(=O)[C@@H](NC(=O)[C@@H](N)C(C)C)[C@@H](C)O)C(C)C)C(=O)N[C@@H](C)C(=O)N[C@H](C(=O)N[C@@H](CC(N)=O)C(=O)N[C@@H](Cc1c[nH]cn1)C(=O)N[C@@H](CO)C(=O)N[C@@H](C)C(=O)N[C@H]1CSSC[C@@H]2NC(=O)[C@H](C(C)C)NC(=O)CNC(=O)[C@H](CC(N)=O)NC(=O)[C@H](CCC(N)=O)NC(=O)[C@H](C)NC(=O)[C@H](CO)NC(=O)CNC(=O)CNC(=O)[C@H](CCCCN)NC(=O)[C@H](CCCCN)NC(=O)[C@H](CCCNC(=N)N)NC(=O)[C@H](CC(C)C)NC(=O)[C@H](C)NC(=O)[C@H]([C@@H](C)CC)NC(=O)[C@H](CSSC[C@@H](C(=O)N[C@@H](CCCNC(=N)N)C(=O)N[C@@H](CC(N)=O)C(=O)O)NC(=O)[C@H](C(C)C)NC2=O)NC(=O)[C@H](Cc2c[nH]cn2)NC(=O)[C@H](CC(C)C)NC(=O)[C@H](C)NC1=O)C(C)C,broth microdilution,ATCC 90028,28 °C,,12.5 µM
